Measured values of several laboratories.
± gives the spread as reported.

Structure (SMILES)	cell line	assay	test system	setting	scale	endpoint	result
CCOc1ccccc1Nc1nnc(SCC(=O)Nc2cc(F)ccc2F)s1	A549 spheroids with human PBMCs			10 µM, 48 h, E:T 5:1, together with: anti-CD3 0.3 µg/mL		IFN-γ level	35 ± 5 pg/mL
O=C1Nc2cccc(C#CC3(O)CCNCC3)c2/C1=C/c1cc2ccccc2[nH]1	C8161.9 expressing LIC2 S202A			100 nM	reference: DMSO	invadopodia formation	no effect
CCN1CCN(c2ccc(Nc3ncc4c(n3)N(C)C(=O)N(c3cc(NC(=O)c5cccc(C(F)(F)F)c5)ccc3C)C4)cn2)CC1	Huh-7 (FGFR4 overexpressing)	cell proliferation, CellTiter-Glo		72 h		GI50	21 ± 10 nM
CC(=O)OC1CC[C@H]2C3=C(CC[C@]12C)[C@]1(C)c2c(coc2C3=O)[C@H](OC(C)=O)[C@@H]2O[C@@H]21 (stereo partly drawn)	MDA-MB-231	PI flow cytometry		10 µM		sub-G1 cells	73.6%
CCOC(=O)/C=C/CNCCCCN1c2ccccc2CCc2ccc(Cl)cc21	B82L	immunoblot, refers to: phospho-AKT		1 µM, 4 h, together with: EGF 100 ng/mL	reference: EGF alone	protein level	decreased
CCCCCCCCCCCCCC[C@@H](O)[C@@H](O)[C@H](CO[C@H]1O[C@H](CO)[C@H](O)[C@H](O)[C@H]1O)NC(=O)CCCCCCCCCCc1ccc(F)cc1	human Vα24+ NKT cells	agonist		10 ng/mL, 24 h, together with: CD1d-transfected HeLa cells	reference: α-GalCer	IFN-γ/IL-4 ratio	2.62 ± 0.18
CN(C)C(=O)Cn1cc(-c2ccc(-c3cncc4ccncc34)cc2)cn1	HL-60 with human NK cells	ADCC, chromium-51 release		concentration not given, together with: CD33 antibody BI 836858	reference: antibody alone	increase in lysis	7 to 17%
Nc1ccc2cc(N)ncc2c1	LX-2	qPCR, refers to: IFN-γ		concentration not given, together with: TGF-β1		mRNA level	increased
Cc1nn(C)c2c(C(C(=O)O)N3CC(OCCCCc4ccc5c(n4)NCCC5)C3)cccc12 (stereo not drawn)	PAH PASMCs	Western blot, refers to: Src Tyr416				Src phosphorylation	decreased
O=C(N/N=C/c1ccc(Sc2ccccn2)s1)c1cccc(Oc2ccccc2)c1	D458 medulloblastoma	cell growth				GI50	13300 nM
O=C(NNC(=S)Nc1cccc(C(F)(F)F)c1)c1cccn1-c1ccc(F)cc1	primary rat cortical neurons			concentration not given		reduction in total tau	30%
O=C(Nc1ccc([N+](=O)[O-])cc1)N[C@H](Cc1c[nH]c2ccccc12)C(=O)NCC1(c2ccccn2)CCCCC1	human neutrophils	chemotaxis, agonist				EC50	4300 nM
O=C(Nc1ccc2cc(NC(=O)C(F)(F)F)nc(Br)c2c1)C(F)(F)F	LX-2	western blot, refers to: α-SMA		concentration not given, together with: TGF-β1		protein level	decreased
CC[C@@H](C)[C@H](N)C(=O)N1Cc2ccc(F)cc2C1	NOMO-1	cell viability, CellTiter-Glo				IC50	300 nM
CCN1CCN(c2ccc(Nc3ncc4c(n3)N(C)C(=O)N(c3cc(NC(=O)c5cccc(C(F)(F)F)c5)ccc3C)C4)cc2)CC1	Hep3B (FGFR4 overexpressing)	cell proliferation, CellTiter-Glo		72 h		GI50	115 ± 20 nM
CC(=NN=c1[nH]c2cc(F)c(F)cc2n1C)c1ccc(F)cn1	MDA-MB-231	cell invasion, Matrigel		50 nM, 48 h	reference: vehicle	inhibition	~40%
CCCCCCCCCCCCCC[C@@H](O)[C@@H](O)[C@H](CO[C@H]1O[C@H](CO)[C@H](O)[C@H](O)[C@H]1O)NC(=O)CCCCCCCc1ccc(-c2ccccc2)cc1	human Vα24+ NKT cells	agonist, ELISA		10 ng/mL, 24 h, unit not given, together with: CD1d-transfected HeLa cells	reference: α-GalCer	IL-4 secretion	0.56 ± 0.04
C=CC(=O)N1CCC(c2cc(Nc3cc4n(n3)CCOC4)c3ncnn3c2)C1 (single isomer, unassigned)	Ramos	calcium flux, FLIPR		1 h preincubation, together with: anti-IgM		maximum inhibition	39.8%
O=C(N/N=C/c1ccc(Sc2ncccn2)o1)c1cccc(OC(F)(F)F)c1	D458 medulloblastoma	cell growth				GI50	76000 nM
C[C@@]12C3=C(C(=O)c4occ(c41)[C@H](O)[C@@H]1O[C@@H]12)[C@@H]1CCC(O)[C@@]1(C)CC3 (stereo partly drawn)	MDA-MB-231	DCFH-DA fluorescence		concentration not given, unit not given	reference: untreated	ROS level	1.26

Structure (SMILES)	cell line	assay	test system	setting	scale	endpoint	result
COc1cc(Nc2ccnc3cc(C#N)ccc23)cc(OC)c1OC	HAP1	refers to: unlabelled CoQ10		20 µM, short incubation		CoQ10 level	no effect
CCCCCCCCCCCCCC[C@@H](O)[C@@H](O)[C@H](CO[C@H]1O[C@H](CO)[C@H](O)[C@H](O)[C@H]1O)NC(=O)CCCCCc1ccccc1	human Vα24+ NKT cells	agonist, ELISA		10 ng/mL, 24 h, unit not given, together with: CD1d-transfected HeLa cells	reference: α-GalCer	IFN-γ secretion	1.12 ± 0.08
COC(=O)[C@@]1(C)C=C(C(=O)Nc2cccc(C(=O)NC34CC(Nc5nccc(-c6cccnc6)n5)(C3)C4)c2)C(=O)CC1	HEK293 AP1 reporter cells	reporter gene, inhibitor, luciferase reporter		10 µM, 6 h, unit not given, together with: PMA	reference: PMA-stimulated	AP1 reporter activity	0.115
CCCCCCCCCCCCCC[C@@H](O)[C@@H](O)[C@H](CO[C@H]1O[C@H](CO)[C@H](O)[C@H](O)[C@H]1O)NC(=O)CCCCCCCCCCCCCCc1ccccc1	human Vα24+ NKT cells	agonist, ELISA		10 ng/mL, 24 h, unit not given, together with: CD1d-transfected HeLa cells	reference: α-GalCer	IFN-γ secretion	0.17 ± 0.01
CCn1c(-c2cc(NC(=O)c3cnccn3)n[nH]2)cc2ccc(OC)cc21	N2a transfected with HTT	HTT aggregation		12 h		optimal effective concentration	0.1 µM
[N-]=[N+]=NCc1cc(N=[N+]=[N-])cc(C(=O)NCCCc2cc(C(=O)[O-])c[n+]([C@@H]3O[C@H](COP(=O)(O)OP(=O)(O)OC[C@H]4O[C@@H](n5cnc6c(N)ncnc65)[C@H](OP(=O)(O)O)[C@@H]4O)[C@@H](O)[C@H]3O)c2)c1	SK-BR-3 expressing TPC2	calcium release, microinjection		concentration not given	reference: TPC2 over non-transfected	peak calcium response	~5 fold
Cc1ccc(NC(=O)c2ccc(CN3CCC(N(C)C)C3)c(C(F)(F)F)c2)cc1N1Cc2cnc(Nc3cnn(C)c3)nc2N(C)C1=O (stereo not drawn)	Hep3B (FGFR4 overexpressing)	cell proliferation, CellTiter-Glo		72 h		GI50	94 ± 20 nM
CCCCCCCCCCCCCC[C@@H](O)[C@@H](O)[C@H](CO[C@H]1O[C@H](CO)[C@H](O)[C@H](O)[C@H]1O)NC(=O)CCCCCCCCCc1ccccc1	human Vα24+ NKT cells	agonist, ELISA		10 ng/mL, 24 h, unit not given, together with: CD1d-transfected HeLa cells	reference: α-GalCer	IFN-γ secretion	0.86 ± 0.06
C=CC(=O)Nc1cccc(N(C(=O)OCc2ccc(F)cc2)c2ccnc(Nc3ccn(C)n3)n2)c1	Ba/F3 EGFR V769_D770insASV	cell growth			above 10 µM not active	EC50	94 ± 5.3 nM
CCCCCCCCCCCCCC[C@@H](O)[C@@H](O)[C@H](CO[C@H]1O[C@H](CO)[C@H](O)[C@H](O)[C@H]1O)NC(=O)CCCCCCCCCCc1ccc(C(F)(F)F)cc1	human Vα24+ NKT cells	agonist, ELISA		10 ng/mL, 24 h, unit not given, together with: CD1d-transfected HeLa cells	reference: α-GalCer	IL-4 secretion	0.87 ± 0.21
Cc1ccc(NC(=O)c2cccc(C(F)(F)F)c2)cc1N1Cc2cnc(Nc3cnn(C)c3)nc2N(C)C1=O	HepG2 (FGFR4 overexpressing)	cell proliferation, CellTiter-Glo		72 h		GI50	397 ± 220 nM
CN1CCN(c2cc(C(=O)Nc3ccc4c(c3)-c3c(c(C(N)=O)nn3-c3ccc(F)cc3)CC4)c(Cl)cn2)CC1	RA synovial fibroblasts	Western blot		concentration not given, 30 min pretreatment, IL-1β for 10 min, together with: IL-1β 1 ng/mL		IRAK-1 degradation	no effect
CC(=O)N1CCN(c2ccc(Nc3ncc4c(n3)N(C)C(=O)N(c3cc(NC(=O)c5cccc(C(F)(F)F)c5)ccc3C)C4)cn2)CC1	HepG2 (FGFR4 overexpressing)	cell proliferation, CellTiter-Glo		72 h		GI50	369 ± 160 nM
CCOc1ccc(S(=O)(=O)NC(=O)Cc2ccc(I)cc2)cc1Br	THP-1	cGAMP level, refers to: cGAMP	cell lysate	100 µM		inhibition	72%
CC(=O)N1CCN(c2ccc(Nc3ncc4c(n3)N(C)C(=O)N(c3cc(NC(=O)c5ccc(CN6CCC(N(C)C)C6)c(C(F)(F)F)c5)ccc3C)C4)cn2)CC1 (stereo not drawn)	Huh-7 (FGFR4 overexpressing)	cell proliferation, CellTiter-Glo		72 h		GI50	6 nM
COC1=CC(=O)O/C1=C(\OC)c1ccccc1	MCF7 transfected	ERE reporter gene, agonist		together with: ICI 182780 1 µM		luciferase induction	inhibited
Cc1cc(Nc2ncc3c(n2)N(C)C(=O)N(c2cc(NC(=O)c4cccc(C(F)(F)F)c4)ccc2C)C3)n(C)n1	Hep3B (FGFR4 overexpressing)	cell proliferation, CellTiter-Glo		72 h		GI50	586 ± 170 nM
CCCCCCCCCCCCCC[C@@H](O)[C@@H](O)[C@H](CO[C@H]1O[C@H](CO)[C@H](O)[C@H](O)[C@H]1O)NC(=O)CCCCCCCCCCc1ccccc1	human Vα24+ NKT cells	agonist		10 ng/mL, 24 h, together with: CD1d-transfected HeLa cells	reference: α-GalCer	IFN-γ/IL-4 ratio	1.4 ± 0.15
Cc1ccccc1C(C(=O)NC1CCCCC1)N(C(=O)Cn1ccnc1C)c1cccc([125I])c1 (racemic)	wild-type IDH1 astrocytoma cells	cell uptake		50 µM	reference: uptake without blocker	uptake increase	1.5 to 1.8 fold

Some of these lines once more:
Structure (SMILES)	cell line	assay	test system	setting	scale	endpoint	result
O=C(Nc1ccc2cc(NC(=O)C(F)(F)F)nc(Br)c2c1)C(F)(F)F	LX-2	western blot, refers to: α-SMA		concentration not given, together with: TGF-β1		protein level	decreased
CC[C@@H](C)[C@H](N)C(=O)N1Cc2ccc(F)cc2C1	NOMO-1	cell viability, CellTiter-Glo				IC50	300 nM
CCN1CCN(c2ccc(Nc3ncc4c(n3)N(C)C(=O)N(c3cc(NC(=O)c5cccc(C(F)(F)F)c5)ccc3C)C4)cc2)CC1	Hep3B (FGFR4 overexpressing)	cell proliferation, CellTiter-Glo		72 h		GI50	115 ± 20 nM
